# Experimental data from different studies.
# Lines come from different studies, so protocols differ.
# Organism: Plasmodium falciparum
Compound,test,test system,setting,scale,endpoint,result
O=C1C2=C(Nc3ccccc3SC2c2ccsc2)c2ccccc21 (racemic),,Dd2 expressing yeast DHOD,with: 0.05 nM proguanil,baseline: transgenic over parental Dd2,fold resistance,16.3
CCC(C)C1NC(=O)C(Cc2ccccc2)NC(=O)C(CCCCCC(=O)C2CO2)NC(=O)C2CCCCN2C1=O (stereo not drawn),,Dd2,"10 x EC50, 24 and 48 h exposure",,time to parasite recrudescence,3 days
CC(=NNC(=S)NN=C(C(=NO)c1ccccc1)c1ccccc1)c1ccccc1,,3D7,,baseline: HEK293 IC50 over parasite IC50,selectivity ratio,23.4
COC1=CC(c2ccc[nH]2)=NC1=CNC1CCCCC1,,"HepG2, D6",,baseline: HepG2 IC50 over D6 IC50,selectivity index,306
CC[C@H](C)[C@H](NC(=O)[C@@H](NC(=O)[C@H](Cc1ccc(O)cc1)NC(=O)[C@H](CCCCN)NC(=O)[C@H](CCCCN)NC(=O)[C@H](CC(C)C)NC(=O)[C@H](CC(=O)O)NC(=O)[C@H](Cc1ccc(O)cc1)NC(=O)[C@H](CCC(N)=O)NC(=O)[C@H](CCCCN)NC(=O)[C@@H](NC(=O)[C@H](Cc1ccccc1)NC(=O)[C@H](CCCCN)NC(=O)[C@H](CCCCN)NC(=O)[C@H](Cc1c[nH]c2ccccc12)NC(=O)[C@H](CCCCN)NC(=O)[C@H](CCSC)NC(=O)[C@H](CCCNC(=N)N)NC(=O)[C@H](CCCNC(=N)N)NC(=O)[C@H](CC(N)=O)NC(=O)[C@H](CCC(N)=O)NC(=O)[C@H](Cc1ccccc1)NC(=O)[C@H](Cc1c[nH]c2ccccc12)NC(=O)[C@@H](NC(=O)[C@H](CCCCN)NC(=O)[C@@H](NC(=O)[C@H](CCC(N)=O)NC(=O)[C@@H](N)CCCNC(=N)N)[C@@H](C)CC)[C@@H](C)CC)[C@@H](C)CC)[C@@H](C)CC)C(=O)O,parasite growth,3D7,early trophozoite stage,,EC90,~90000 nM
COC1=CC(c2ccc[nH]2)=NC1=CNC12CC3CC(CC(C3)C1)C2,,"HepG2, D6",,baseline: HepG2 IC50 over D6 IC50,selectivity index,1060
N#Cc1c(-c2ccco2)[n+]([O-])c2ccc(F)cc2[n+]1[O-],,K1 chloroquine-resistant,,baseline: K1 IC50 over 3D7 IC50,resistance index,0.76
CC[C@H](C)[C@H](NC(=O)[C@H](Cc1ccccc1)NC(=O)[C@H](CC(C)C)NC(=O)[C@]1(C)CCCC=CCCC[C@](C)(NC(=O)[C@H](CC(C)C)NC(=O)[C@H](CCCCN)NC(=O)[C@H](CCC(N)=O)NC(=O)[C@H](CO)NC(=O)CNC(=O)CCNC(=O)c2ccc3c(c2)C(=O)OC32c3ccc(O)cc3Oc3cc(O)ccc32)C(=O)N[C@@H](CCC(N)=O)C(=O)N[C@@H](C)C(=O)N[C@@H](C)C(=O)N1)C(=O)NCC(=O)N[C@@H](CO)C(=O)N[C@@H](CCCCN)C(=O)N[C@@H](CC(C)C)C(=O)N[C@H](C(=O)N[C@H](C(N)=O)[C@@H](C)O)[C@@H](C)O,,CS2,"20 µM, 24 h, late-stage iRBC",,parasitemia reduction,~70%
COC1=CC(c2ccc[nH]2)=NC1=CNC1CCCCCCC1,parasite growth,"Dd2, chloroquine-resistant",,,IC50,7.1 nM
Cc1[nH]c2ccccc2c1C1CCN(CC2CCC(NC(=O)/C=C/c3ccc(Cl)c(Cl)c3)CC2)CC1 (stereo not drawn),,3D7,"2.5 nM, 48 h",,parasitaemia increase,9.58%
CCCCN1C(=O)c2ccc3c4c(ccc(c24)C1=O)C(=O)N(CCNc1c2ccc(Cl)cc2nc2ccc(OC)cc12)C3=O,"parasite growth, SYBR Green I fluorescence",W2 over 3D7,,baseline: IC50 W2 over IC50 3D7,resistance index,14.3
O=C1C2=C(Nc3ccccc3SC2c2ccc(F)cc2)c2ccccc21 (racemic),,Dd2 expressing yeast DHOD,with: 0.5 nM proguanil,baseline: transgenic over parental Dd2,fold resistance,0.47
CCCCN=Cc1[nH]c(-c2ccc[nH]2)cc1OC,,"HepG2, D6",,baseline: HepG2 IC50 over D6 IC50,selectivity index,109
COc1cc2c3c4c1Oc1cc5c(cc1O4)[C@H](Cc1ccc(OCCCN(C)C)c(c1)Oc1ccc(cc1)C[C@@H]3N(C)CC2)N(C)CC5,,"NF54, early ring stage","3 x IC50, 6 h, 0-6 h post-invasion, read at 72 h post-invasion",,parasite survival,~20%
O=C1C2=C(Nc3ccccc3SC2C2CC2)c2ccccc21 (racemic),"growth, [3H]hypoxanthine incorporation",Dd2,,,EC50,20 nM

# Repeated from above:
Compound,test,test system,setting,scale,endpoint,result
N#Cc1c(-c2ccco2)[n+]([O-])c2ccc(F)cc2[n+]1[O-],,K1 chloroquine-resistant,,baseline: K1 IC50 over 3D7 IC50,resistance index,0.76
O=C1C2=C(Nc3ccccc3SC2C2CC2)c2ccccc21 (racemic),"growth, [3H]hypoxanthine incorporation",Dd2,,,EC50,20 nM
